Experimental data of several laboratories.
Lines come from different studies, so protocols differ. ± marks the error that the study gave.
Organism: Escherichia coli

Structure (SMILES)	test	system	conditions	how to read	MIC
CC[C@H](C)[C@H](NC(=O)CNC(=O)[C@H](CC(=O)O)NC(=O)[C@H](CCCNC(=N)N)NC(=O)[C@@H](NC(=O)[C@H](CC(N)=O)NC(=O)[C@H](CCCNC(=N)N)NC(=O)CNC(=O)[C@@H](NC(=O)[C@H](CCCCN)NC(=O)[C@H](CCC(=O)O)NC(=O)[C@@H](NC(=O)[C@H](CCC(=O)O)NC(=O)[C@H](CCCCN)NC(=O)[C@H](Cc1ccccc1)NC(=O)[C@@H](NC(=O)[C@H](CCCCN)NC(=O)[C@H](Cc1c[nH]c2ccccc12)NC(=O)[C@@H](N)CCCNC(=N)N)[C@@H](C)CC)[C@@H](C)CC)C(C)C)C(C)C)C(=O)N[C@H](C(=O)N[C@@H](CCCCN)C(=O)N[C@@H](C)C(=O)NCC(=O)N1CCC[C@H]1C(=O)N[C@@H](C)C(=O)N[C@H](C(=O)N[C@@H](C)C(=O)N[C@H](C(=O)N[C@H](C(=O)NCC(=O)N[C@@H](CCC(N)=O)C(=O)N[C@@H](C)C(=O)N[C@@H](C)C(=O)N[C@H](C(=O)N[C@H](C(=O)N[C@H](C(=O)N[C@@H](CCCCN)C(N)=O)C(C)C)C(C)C)[C@@H](C)O)C(C)C)C(C)C)C(C)C)[C@@H](C)CC	–	KCTC 1682, Mueller-Hinton broth	16 h, 37 °C	growth inhibition over 99%	4 µM
CC1(C)SC2C(NC(=O)C(NC(=O)C3=C(O)C(Cc4ccc(O)cc4)NC3=O)c3ccccc3)C(=O)N2C1C(=O)O (stereo not drawn)	broth microdilution	ATCC 35218, low-level TEM-1	with: clavulanic acid 6 µg/mL	–	200 µg/mL
CC[C@H](C)[C@H](NC(=O)[C@H](CC(C)C)NC(=O)[C@H](CCCNC(=N)N)NC(=O)[C@@H](N)CCCNC(=N)N)C(=O)N[C@@H](CC(C)C)C(=O)N[C@H](C(=O)N[C@@H](CCCCN)C(=O)N[C@H](C(=O)NCC(=O)N1CCC[C@H]1C(=O)N[C@H](C(=O)N[C@H](C(=O)N[C@@H](Cc1ccc(O)cc1)C(=O)N[C@@H](CCCCN)C(=O)N[C@@H](Cc1ccc(O)cc1)C(=O)N[C@@H](Cc1ccccc1)C(=O)N[C@@H](CCCCN)C(=O)N[C@@H](CCCCN)C(=O)N[C@@H](CCC(N)=O)C(=O)N[C@@H](CC(C)C)C(=O)N[C@@H](CCCCN)C(=O)N[C@@H](CCCCN)C(=O)N[C@@H](CC(C)C)C(N)=O)[C@@H](C)CC)[C@@H](C)CC)[C@@H](C)O)[C@@H](C)O	broth microdilution	KCTC 1682, Mueller-Hinton broth	24 h, 37 °C	–	8 µM
CC[C@H](C)[C@H](NC(=O)[C@H](Cc1c[nH]c2ccccc12)NC(=O)[C@@H](N)CCCCN)C(=O)N[C@H]1CSSC[C@@H](C(=O)N[C@@H](CCCNC(=N)N)C(=O)N[C@@H](Cc2c[nH]c3ccccc23)C(=O)N[C@@H](CCCNC(=N)N)C(=O)O)NC(=O)[C@H](Cc2ccc(O)cc2)NC(=O)[C@H]([C@@H](C)O)NC(=O)[C@H]([C@@H](C)CC)NC(=O)[C@H](Cc2c[nH]c3ccccc23)NC(=O)[C@H](CCCNC(=N)N)NC(=O)CNC(=O)[C@H](CCCNC(=N)N)NC(=O)[C@H](Cc2ccc(O)cc2)NC(=O)[C@H](Cc2c[nH]c3ccccc23)NC(=O)[C@H](CC(C)C)NC(=O)[C@H](CCCNC(=N)N)NC(=O)[C@H](CCCNC(=N)N)NC1=O	bacterial growth, broth dilution, OD600	DH5α, LB medium	16 h, 37 °C	–	12.5 µM
CC[C@H](C)[C@H](NC(=O)[C@H](C)N)C(=O)N[C@@H](CO)C(=O)NCC(=O)N[C@@H](CO)C(=O)N[C@@H](CC(C)C)C(=O)N[C@H](C(=O)N[C@H](C(=O)N[C@@H](CC(C)C)C(=O)N[C@@H](Cc1ccccc1)C(=O)NCC(=O)N[C@@H](Cc1ccc(O)cc1)C(=O)N[C@@H](CCCNC(=N)N)C(=O)N[C@@H](CCCCN)C(=O)N[C@@H](CCCNC(=N)N)C(=O)N[C@@H](CCCCN)C(=O)N[C@@H](CCCNC(=N)N)C(=O)N[C@@H](CCCCN)C(N)=O)[C@@H](C)O)C(C)C	checkerboard	–	24 h, 37 °C, alone, azithromycin plate	–	32 µM
CC[C@H](C)[C@H](N)C(=O)N[C@@H](CC(C)C)C(=O)NCC(=O)N[C@H](CCCCN)C(=O)N[C@H](C(=O)N[C@@H](Cc1c[nH]c2ccccc12)C(=O)N[C@@H](CCCCN)C(=O)NCC(=O)N[C@H](C(=O)N[C@@H](CCCCN)C(=O)N[C@@H](CC(=O)O)C(=O)N[C@H](C(=O)N[C@@H](CC(C)C)C(N)=O)[C@@H](C)CC)[C@@H](C)CC)[C@@H](C)CC	broth microdilution	ATCC 25922, Mueller-Hinton broth	16 h, 37 °C	–	25 µM
CCCCCCCCCC(=O)N[C@@H](Cc1c[nH]c2ccccc12)C(=O)N[C@H](CC(N)=O)C(=O)N[C@@H](CC(=O)O)C(=O)N[C@@H]1C(=O)NCC(=O)N[C@@H](CCCN)C(=O)N[C@@H](CC(=O)O)C(=O)N[C@H](C)C(=O)N[C@@H](CC(=O)O)C(=O)NCC(=O)N[C@H](CO)C(=O)N[C@@H]([C@H](C)CC(=O)O)C(=O)N[C@@H](CC(=O)c2ccccc2N)C(=O)O[C@@H]1C	broth dilution	K-12 MG1655 wild type	–	–	inactive
CC(C)C[C@H](NC(=O)[C@H](Cc1c[nH]c2ccccc12)NC(=O)[C@H](CC(C)C)NC(=O)[C@@H](NC(=O)[C@H](CC(C)C)NC(=O)[C@H](CCCNC(=N)N)NC(=O)[C@@H](N)CCCNC(=N)N)[C@@H](C)O)C(=O)N[C@H](C(=O)N[C@@H](CC(C)C)C(=O)N[C@@H](CCCNC(=N)N)C(=O)N[C@@H](CCCNC(=N)N)C(N)=O)[C@@H](C)O	broth microdilution	25922, Mueller-Hinton broth	24 h, 37 °C, lowest concentration, 95% inhibition, with: BSA	–	4 µM
OCC(S)CS (stereo not drawn)	–	NDM-1 producing	compound alone	–	> 2000 µM
CC[C@H](C)[C@H](NC(=O)CNC(=O)[C@H](C)NC(=O)[C@@H](NC(=O)[C@@H](NC(=O)[C@@H](NC(=O)[C@@H](NC(=O)[C@@H](NC(=O)[C@H](CC(C)C)NC(=O)[C@H](CC(C)C)NC(=O)[C@@H]1CCCN1C(=O)[C@H](Cc1c[nH]c2ccccc12)NC(=O)[C@@H](N)Cc1ccccc1)[C@@H](C)CC)[C@@H](C)O)[C@@H](C)O)C(C)C)C(C)C)C(=O)N[C@@H](CC(N)=O)C(=O)N[C@@H](CC(C)C)C(=O)N[C@@H](Cc1ccc(O)cc1)C(=O)N[C@@H](CCCNC(=N)N)C(=O)N[C@@H](C)C(=O)N[C@H](C(=O)N[C@@H](CCCNC(=N)N)C(=O)N[C@@H](CCCNC(=N)N)C(=O)N[C@@H](CCCCN)C(=O)O)[C@@H](C)CC	broth microdilution	K88, Mueller-Hinton broth	37 °C	–	108 µM
CC[C@H](C)[C@H](NC(=O)[C@H](CCCCN)NC(=O)[C@H](CC(=O)O)NC(=O)[C@H](CC(C)C)NC(=O)[C@@H](NC(=O)[C@H](CC(N)=O)NC(=O)[C@H](CC(C)C)NC(=O)[C@@H](NC(=O)[C@H](Cc1ccccc1)NC(=O)[C@H](CCCCN)NC(=O)[C@H](CCCCN)NC(=O)CNC(=O)[C@H](C)NC(=O)[C@H](CC(N)=O)NC(=O)[C@H](CCCCN)NC(=O)[C@H](Cc1ccccc1)NC(=O)[C@H](CC(N)=O)NC(=O)[C@H](CCC(=O)O)NC(=O)[C@H](Cc1c[nH]c2ccccc12)NC(=O)[C@H](CC(C)C)NC(=O)[C@@H](N)CO)[C@@H](C)CC)[C@@H](C)CC)C(=O)N[C@@H](CCCNC(=N)N)C(N)=O	–	ATCC 8739	overnight, 37 °C, with: 4.5 mM KCl	–	2 µM
CC[C@H](C)[C@H](NC(=O)[C@H](CC(C)C)NC(=O)[C@H](CCCCN)NC(=O)[C@@H](NC(=O)[C@H](C)NC(=O)[C@H](CCC(=O)O)NC(=O)[C@H](Cc1c[nH]cn1)NC(=O)[C@@H](NC(=O)[C@H](CCCCN)NC(=O)[C@H](CCC(N)=O)NC(=O)[C@H](Cc1ccccc1)NC(=O)[C@@H](NC(=O)[C@H](CCCCN)NC(=O)[C@H](CCCCN)NC(=O)[C@H](CC(C)C)NC(=O)[C@H](C)N)C(C)C)[C@@H](C)CC)[C@@H](C)CC)C(N)=O	broth microdilution	CCARM 1229 resistant	18 h, 37 °C	–	4 µM
CC[C@H](C)[C@H](NC(=O)[C@H](CCCNC(=N)N)NC(=O)[C@H](CCCNC(=N)N)NC(=O)[C@@H]1CCCN1C(=O)[C@@H]1CCCN1C(=O)[C@H](CCCNC(=N)N)NC(=O)[C@@H]1CCCN1C(=O)[C@H](CCCNC(=N)N)NC(=O)[C@@H]1CCCN1C(=O)[C@H](CC(C)C)NC(=O)[C@H](Cc1ccc(O)cc1)NC(=O)[C@@H]1CCCN1C(=O)[C@@H]1CCCN1C(=O)[C@H](CCCCN)NC(=O)[C@H](CC(=O)O)NC(=O)[C@@H](N)C(C)C)C(=O)N[C@@H](Cc1ccc(O)cc1)C(=O)N[C@@H](CC(N)=O)C(=O)N[C@@H](CCCNC(=N)N)C(N)=O	broth microdilution	MRE600	16 h, 37 °C, 25% Mueller-Hinton broth	–	2 µg/mL
CC[C@H](C)[C@H](NC(=O)[C@H](CC(C)C)NC(=O)[C@H](CCCCN)NC(=O)[C@H](CC(C)C)NC(=O)CNC(=O)[C@@H](NC(=O)[C@H](CO)NC(=O)[C@@H](NC(=O)[C@@H](NC(=O)[C@H](CCC(N)=O)NC(=O)[C@H](Cc1c[nH]c2ccccc12)NC(=O)[C@H](CCCNC(=N)N)NC(=O)[C@H](CC(N)=O)NC(=O)[C@H](CCCNC(=N)N)NC(=O)[C@H](CCCNC(=N)N)NC(=O)[C@@H](NC(=O)[C@H](Cc1ccccc1)NC(=O)[C@H](CCCNC(=N)N)NC(=O)CNC(=O)[C@H](C)NC(=O)[C@H](CCCNC(=N)N)NC(=O)[C@H](CCCNC(=N)N)NC(=O)[C@H](CCCCN)NC(=O)[C@H](Cc1ccccc1)NC(=O)[C@H](CCCNC(=N)N)NC(=O)CNC(=O)[C@H](Cc1c[nH]c2ccccc12)NC(=O)[C@H](CCCNC(=N)N)NC(=O)CNC(=O)[C@H](CCCNC(=N)N)NC(=O)[C@@H](N)[C@@H](C)O)[C@@H](C)CC)[C@@H](C)CC)[C@@H](C)CC)[C@@H](C)O)C(=O)NCC(=O)O	–	ATCC 25922	highest concentration 50 µM	–	0.6 µM
CC1(C)S[C@@H]2[C@H](NC(=O)C(C(=O)O)c3ccccc3)C(=O)N2[C@H]1C(=O)O (stereo partly drawn)	broth microdilution	Keio mutant JW0146-2	18 h, ferric hydroxamate uptake gene	–	12.5 µg/mL
CC[C@H](C)[C@H](NC(=O)[C@H](C)NC(=O)[C@H](CCC(N)=O)NC(=O)[C@@H](NC(=O)[C@@H](NC(=O)[C@H](CCCNC(=N)N)NC(=O)[C@@H](N)CCCCN)[C@@H](C)CC)C(C)C)C(=O)N[C@@H](CCCCN)C(=O)N[C@@H](CC(=O)O)C(=O)N[C@@H](Cc1ccccc1)C(=O)N[C@@H](CC(C)C)C(=O)N[C@@H](CCCNC(=N)N)C(N)=O	broth microdilution	K12	16 h, 37 °C	–	40 ± 20 µM
C[C@@H](O)[C@H]1C(=O)N2C(C(=O)O)=C(SCCN=CN)C[C@H]12	–	NCCP 16046 carbapenem-resistant, Mueller-Hinton broth	16 h, 37 °C	–	8 µM
CC1(C)S[C@@H]2[C@H](NC(=O)Cc3ccccc3)C(=O)N2[C@H]1C(=O)O	–	–	–	–	250 µg/mL
CC(C)Oc1c(NC(=O)c2ccc(N3C(=O)C[C@H](NC(=O)c4ccc(NC(=O)c5ccc(C#N)cc5)cc4)C3=O)cc2)ccc(C(=O)N/N=C/c2cnn(C)c2)c1O	–	BW25113	18 h, 37 °C, dark-adapted state	–	0.32 µg/mL
CC(=O)C1=C(O)C(CC(C)C)NC1=O (stereo not drawn)	–	K12 ΔtolC	–	–	> 200 µg/mL
Oc1cc(Cl)ccc1Oc1ccc(Cl)cc1Cl	–	MG1655 FabI G148S Debio-1452-NH3-resistant	–	–	2 µg/mL

Excerpt of the above:
Structure (SMILES)	test	system	conditions	how to read	MIC
CC(=O)C1=C(O)C(CC(C)C)NC1=O (stereo not drawn)	–	K12 ΔtolC	–	–	> 200 µg/mL
